Experimental data from different studies.
Every numbered part comes from another study and shows a few of its results, in no order. Substitutions count along the parent as printed.

Block 1
Target: CREB3, bZIP domain (human)
Method: DHFR protein complementation
Sample: yeast
Setting: single substitutions, most at no-binding floor
Relative to: wild-type JUN-FOS pair
Direction: higher = stronger binding
Starting sequence: JUN, bZIP domain (human); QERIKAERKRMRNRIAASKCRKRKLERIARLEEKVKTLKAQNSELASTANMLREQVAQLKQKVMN; partner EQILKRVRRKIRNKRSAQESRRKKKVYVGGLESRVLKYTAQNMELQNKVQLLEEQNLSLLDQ
Substitution	binding fitness [natural log]
V56L	-1.45
L38R	-1.5
L38D	-1.55
M51L	-1.47
A46S	-1.32
S47D	-1.44
Q41H	-1.45
K36L	-1.43
K34E	-1.54
E32N	-1.53
A57T	-1.4
K39R	-1.27
T48E	-1.38
L59P	-1.53
L45K	-1.52
N42L	-1.5
E44F	-1.38
T48I	-1.46
L52R	-1.46
L31I	-1.37
R30H	-1.53
E33G	-1.43
K39T	-1.25
T48N	-1.6
A49H	-1.55

Block 2
Target: ABI1, truncated, D143A, DHFR fusion (Arabidopsis thaliana)
Method: DHFR PCA, deep sequencing
Sample: yeast
Setting: methotrexate growth selection, single substitutions
Together with: (+)-ABA 58 µM
Relative to: wild-type fitted maximum
Direction: higher = stronger binding
Starting sequence: PYL1, truncated, DHFR fusion (Arabidopsis thaliana); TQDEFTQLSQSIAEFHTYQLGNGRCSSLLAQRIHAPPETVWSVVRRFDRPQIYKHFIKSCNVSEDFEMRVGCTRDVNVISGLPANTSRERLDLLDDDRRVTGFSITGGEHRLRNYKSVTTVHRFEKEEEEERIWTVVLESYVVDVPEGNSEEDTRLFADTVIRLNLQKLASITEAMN; partner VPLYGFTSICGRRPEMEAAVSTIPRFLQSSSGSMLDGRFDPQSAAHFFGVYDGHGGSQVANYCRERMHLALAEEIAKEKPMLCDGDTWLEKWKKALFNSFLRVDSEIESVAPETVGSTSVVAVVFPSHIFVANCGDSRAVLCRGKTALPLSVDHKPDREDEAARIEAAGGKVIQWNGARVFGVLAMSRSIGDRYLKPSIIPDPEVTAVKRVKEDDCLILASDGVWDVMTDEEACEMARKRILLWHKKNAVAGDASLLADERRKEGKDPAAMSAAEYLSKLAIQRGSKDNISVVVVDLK
Substitution	relative binding score
L93Q	92%
V118W	15%
Q51L	23.2%
L138G	-2.68%
V62S	41.8%
E174Y	52.2%
I172D	6.15%
Q51K	29.5%
R98G	58.4%
L169S	-1.93%
E14K	71.9%
D97S	91.1%
E151Q	82.7%
I79D	22%

Block 3
Target: RNA binding protein fox-1 homolog 2, RRM domain, GST-SBP tag (RBFOX2, Homo sapiens, UniProt O43251-10, residues 100-194)
Method: RNA Bind-n-Seq
Form: RNA
Sample: in vitro
Concentration: 365 nM
Setting: natural RNA segment, single round, ends assumed
Relative to: no-protein control
Direction: higher = stronger binding
Residues (chain): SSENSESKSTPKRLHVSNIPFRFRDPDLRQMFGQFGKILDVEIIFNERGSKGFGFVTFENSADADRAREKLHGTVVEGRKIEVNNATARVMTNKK
Oligonucleotide	RBNS enrichment (R)
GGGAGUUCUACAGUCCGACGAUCUUGCCACACCAAUCAGAGAGCCUAGAACAUCCCUGGGCAAGUGGAUGGCCCAGCAGGCAGGCACUGUGGCCCUUCUGUCCACCAGACCCACCUGGAGCCCGCUUCAAGCUUGGAAUUCUCGGGUGCCAA	0.373
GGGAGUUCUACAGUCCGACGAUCAAAUUAUGUUCUACUAUGCUCAGGCCCAAAGGCAAUGUGGGGGCCAAAGGGCAACUGGCCUUCUGACCCACUAGAGCCUUGCAAAGAGUUGGCAGUCAGGGGGGUGUCAUUGGAAUUCUCGGGUGCCAA	0.33
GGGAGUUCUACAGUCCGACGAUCACAGGUCGGCUGUGGGGCAGCUCAGUACCCUCCCUGAGGCUCACGGUGGCUCCGAGCAUGAGGUCCGCCUCCUGGGCGAGACCCAGCAGUGGACAGCAUGGUCCUCACACUGGAAUUCUCGGGUGCCAA	0.892
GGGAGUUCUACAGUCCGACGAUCCUGCCGAGCAAAGGGAACGUCCUCAGAUUUCCGUCCAUUUCAUUUCUUCAUUAGAGUAAACAGUGGGACUUGGGAGGAUUAGUCUGGUGUCUAUUCUGGGCUAGAGAGAUUGGAAUUCUCGGGUGCCAA	0.274
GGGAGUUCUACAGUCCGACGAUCGUUUGUUUCUACAUACCUAUGACCACAGCUCUGGAAAAAUAGCAAAUGAAGAAAUGAAUUGCCAAAACCACUGAGGCCUCCUCUCAAAACAAAACAUAUAAAAGUAACAGUGGAAUUCUCGGGUGCCAA	0.569
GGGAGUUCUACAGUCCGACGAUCUAUUACGUAUGUACUUCUAGGUUGCAAGGUUUUGAAAUUUUCUGUACAGUUUGUGAGGACCUUUGCACUUUGCCAUCUGAUGUCGUACCUCGGUUCACUGUUUGUUUUCGUGGAAUUCUCGGGUGCCAA	0.39
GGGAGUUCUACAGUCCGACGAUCGGAGUCGGGGGCCACAGGCCUCUAGCUGUGCUGCUCAAGAGACUGGAUCAGGGUAGCUACAAGUGGCCGGGCCUUGCCUUUGGGAUUCUACCUGUUCCUAAUUUGGUGUGUGGAAUUCUCGGGUGCCAA	0.5
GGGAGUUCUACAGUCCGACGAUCCUUGAGGUUCCUUGAAUUUGCGAGGUGUGGAAAGACUACUUGACUGUCUGUCCAGCUUAGCUGUUAUGUUUUUUGGGGGGGAGGGGUGAUGUGUUAAGAGUGAGUGGUACUGGAAUUCUCGGGUGCCAA	1.44
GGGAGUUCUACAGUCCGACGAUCCCCUACAUCCCACCCUCCUCUUGACGCGUUUCUGGUGGUUUCGGUUUCUGCGUUGCCCUCCAGAUCCUGAGGUGGGCCGUGAGACGACUUGCUUUAAACUCUGUUCAAUCUGGAAUUCUCGGGUGCCAA	0.313
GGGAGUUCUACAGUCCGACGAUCCAAGAUGAGUUUUGAGCGUUGUAUUCCAAAGGCCUCAUCUGGAGCCUCGGGAAAGUCUGGUCCCACAUCUGCCCGCCCUUCCAGCCCUUCCCCAGCCCCUCCUCUUGUUUUGGAAUUCUCGGGUGCCAA	0.875
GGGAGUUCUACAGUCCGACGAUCAAAUUAUCACACUUGCACAUGAAGAUAAAACAUGAAGUAAUUGUGCUGGUAGCCUUUUGGGAAUUGGUUUGGUUUAUUGUAUAUGUACCAUUUUGCUACCAGUUUCAUUGUGGAAUUCUCGGGUGCCAA	4.99
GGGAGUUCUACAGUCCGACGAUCCGAUCGCAUCUUGUGUCGCUGAGGCGGCGCACUGAGGGACCAGAUGGACUCCAGCCCUUCAGGAGGCAAGAGGAAAAAAGUGCUCUCGGUUCCCCAGGGGAUCUCUGGGAUGGAAUUCUCGGGUGCCAA	0.542

Block 4
Target: RING finger protein unkempt homolog, zinc fingers 1-6, GST-SBP tag (UNK, Homo sapiens, UniProt Q9C0B0, residues 30-357)
Method: RNA Bind-n-Seq
Form: RNA
Sample: in vitro
Concentration: not given
Setting: RNA with constant flanks, human and mouse sites, ends assumed
Relative to: input RNA pool
Direction: higher = stronger binding
Residues (chain): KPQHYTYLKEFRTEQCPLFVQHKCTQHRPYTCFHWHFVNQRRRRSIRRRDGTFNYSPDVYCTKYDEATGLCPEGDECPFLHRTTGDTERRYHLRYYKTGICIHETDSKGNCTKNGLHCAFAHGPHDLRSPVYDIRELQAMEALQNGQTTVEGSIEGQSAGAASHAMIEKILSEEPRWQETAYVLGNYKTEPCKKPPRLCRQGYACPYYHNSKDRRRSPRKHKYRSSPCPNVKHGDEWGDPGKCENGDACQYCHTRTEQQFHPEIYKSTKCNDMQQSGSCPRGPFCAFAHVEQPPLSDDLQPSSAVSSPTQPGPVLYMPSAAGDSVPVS
Oligonucleotide	bound/input enrichment [ratio]
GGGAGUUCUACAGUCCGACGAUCGGCUUGGAGUUUGGCAAGUUACCAUUUGGUGCCUGCGAAGAUCCUAUUAGUGAACUCCAUUUAGCUACUACAUGGCCUCAUCUGACCGAAGGGAUCAUUGUGGAUAAUGAUGUUUAUUCUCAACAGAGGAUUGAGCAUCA	0.619
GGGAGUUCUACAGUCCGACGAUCGAAGAGAAUUAUGGUGUGGUGUCCACAUAUGAUAGCAGUUUAUCUUCAUAUACGGUUCCUUUAGAAAGGGACAACUCAGAAGAAUUUCUUAAACGGGAGGCAAGGGCAAACCAGUUAGCACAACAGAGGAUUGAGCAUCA	1.41
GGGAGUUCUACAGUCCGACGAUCGAAAUCCUAGGGCGCAGACAACAGCUAGAGACACCGAGUGAUGAGGAUAAUGACUCUUCCUUAAGUGAGUGUCUGUCUUCUCCCUCAUCUAGUCUCCAUUUUGGGGGCUCUGAUACAGUGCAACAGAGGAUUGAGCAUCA	0.175
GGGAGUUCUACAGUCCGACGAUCGGAGGUCCUCGAGGACCCAGUGUGCCCCCUGGCAUGAACCCUUCAGGCAUGGGAGGAAUGAUGGGCCCCUCUGGCCUUUCUUCAAUGGCCAUGACUCCUACCCGGGCAGCAGGCAUGACACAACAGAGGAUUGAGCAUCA	0.252
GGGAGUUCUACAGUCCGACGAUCACACCCACGAUCCAGUGUCUGCUUUACCUAUUUAUUUUUUAAGUUUUUUUAACGUCUGCUUUUAGAAGUGGAGCUUUGACAGGGUGUUUGCUCGAUAGAAAGGCAGCCUCUGUCCUUAAGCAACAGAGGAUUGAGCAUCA	7.37
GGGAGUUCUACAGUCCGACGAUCGACUCCAUCUUGAGUUGGGGGACUAUUUGGCUUGGUGGGCAAGGGAGCUGCUCGUUGCCAAGGGGCCUCGCUCCACCCCCCACCACCCCACCCCCAGACAUGCUGCUGCUCAAGAAACAGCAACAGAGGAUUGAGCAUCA	0.33
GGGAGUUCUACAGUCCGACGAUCUUUGCAAGAAAAAAGACCCGUGUCCUGUCCUUUGUUUGUAACAGUUGCAACACUUGAUAUUUUAGAGGGGUCUUUUACUCUCUUCAAACGUCCUUGAUGUGGUCUGUAAAUUCUGUUUCACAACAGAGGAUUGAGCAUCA	0.232
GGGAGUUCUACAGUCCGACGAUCCCACUAUCAGAAACAGAAAUGGCUCUGGGCAAGGAUGUGACUCCACCUCCAGAAACAGAAGUAGUUCUCAUCAAGAACGUAUGUCUGCCUCCAGAAAUGGAGGUGGCCCUGACUGAGGAUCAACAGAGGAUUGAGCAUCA	0.0856
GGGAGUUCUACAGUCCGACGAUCGUGACUAACAUCCUUAUGCUGAAAGGAAAAAACCAGGCAUUUUUGGAACUGGCAACAGAGGAAGCAGCUAUUACUAUGGUUAAUUACUAUUCUGCUGUGACACCUCAUCUUCGUAACCAACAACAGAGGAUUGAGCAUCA	0.188
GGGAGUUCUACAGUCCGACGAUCGUUCAAGAAGAGCUCCUGAAAGGCUUGGACAAUAAGAAUCCCAAGAUCAUAGUGGCCUGUAUAGAGACACUGAGGAAAGCCUUAAGUGAAUUUGGUUCCAAAAUCAUCUUGCUUAAGCCACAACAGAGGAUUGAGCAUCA	0.336
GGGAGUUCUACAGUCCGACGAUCAGAUUAGGCCAUGAUCCCUACAGACUAACUCCGGAUCCCUAUAGGGUAUCACCUAGGCCCUAUAGAAUAGCACCCAGGUCCUAUAGGAUAGCACCUAGGCCAUACAGGUUAGCACCUAGACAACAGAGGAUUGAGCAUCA	3.76

Block 5
Target: CCNB2, cyclin fold, Cln2 fusion (human)
Method: yeast growth competition, sequencing
Sample: yeast
Setting: strong parent motif
Relative to: not given
Direction: higher = stronger binding
Starting sequence: E2F1 docking peptide (human); PPVKRRLDFETDH; partner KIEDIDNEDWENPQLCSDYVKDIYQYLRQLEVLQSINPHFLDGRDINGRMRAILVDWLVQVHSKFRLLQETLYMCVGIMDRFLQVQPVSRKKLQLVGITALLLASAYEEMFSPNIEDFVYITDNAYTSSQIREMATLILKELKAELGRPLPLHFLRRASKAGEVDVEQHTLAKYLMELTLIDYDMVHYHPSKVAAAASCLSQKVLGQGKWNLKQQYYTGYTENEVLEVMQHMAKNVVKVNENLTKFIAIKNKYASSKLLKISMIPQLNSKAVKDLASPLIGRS
Substitution	normalised enrichment score
T11Q	3.94
L7V	0.317
P2D	3.47
D8I	2.86
K4G	0.932
E10F	2.46
R5V	1.88
K4T	1.14
R6D	0.286
R5L	1.63
L7T	0.049
P2M	2.97
T11S	4.34
F9K	-0.154
D8S	3.12
P2C	3.44
L7G	-0.219
V3H	0.399
D12K	2.35
F9A	0.266
